Published values pooled from the literature.
Each line is one published result; not all experiments were run side by side. Several values in a cell are separate wells, animals, samples, runs or records. ± marks the error that the study gave.
UniProt P36896, sequence (whole entry, looked up): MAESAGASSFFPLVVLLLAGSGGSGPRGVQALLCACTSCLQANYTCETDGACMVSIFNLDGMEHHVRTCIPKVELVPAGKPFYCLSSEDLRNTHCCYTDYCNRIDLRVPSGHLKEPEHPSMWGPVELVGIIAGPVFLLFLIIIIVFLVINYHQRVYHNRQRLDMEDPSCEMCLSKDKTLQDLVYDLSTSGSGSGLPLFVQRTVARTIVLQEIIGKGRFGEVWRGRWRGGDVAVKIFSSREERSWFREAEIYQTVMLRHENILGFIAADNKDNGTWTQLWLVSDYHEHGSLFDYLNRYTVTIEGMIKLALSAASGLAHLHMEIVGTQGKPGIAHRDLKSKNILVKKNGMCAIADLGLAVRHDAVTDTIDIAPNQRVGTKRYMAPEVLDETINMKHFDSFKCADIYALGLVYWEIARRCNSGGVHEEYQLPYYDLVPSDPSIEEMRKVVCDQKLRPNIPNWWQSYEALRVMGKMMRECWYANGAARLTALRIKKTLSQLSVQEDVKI

SMILES	target or system	test	system	conditions	how to read	quantity	result
Cc1ncsc1-c1ccc(C(C)NC(=O)C2CC(O)CN2C(=O)C(NC(=O)CCCCCCCCCCN2CCCC(Nc3ncc(Cl)c(Nc4ccccc4S(=O)(=O)C(C)C)n3)C2)C(C)(C)C)cc1 (stereo not drawn)	22Rv1	RNA-seq, refers to: SEMA6A mRNA	–	concentration not given	reference: DMSO	log2 fold change	-1.24
O=C(N/N=C/c1ccc(C[n+]2ccccc2)cc1)C(=O)N/N=C/c1ccc(C[n+]2ccccc2)cc1	22CTA telomeric G4-DNA antiparallel	FRET melting	–	1 µM, K10 buffer, DNA 0.2 µM, added: ds26 10 µM	–	ΔTm	5.3 ± 2.4 °C
CC12CCCC(n3cc(C(N)=O)nn3)(C1)C1CC(C)(C)C1CC2 (stereo not drawn)	HT-29	cell growth or viability, CCK-8	–	10 µM	–	inhibition	< 50%
O=C(C[Se]C(=O)c1ccc2ccccc2n1)Nc1cccc(C(F)(F)F)c1	NCI60 leukemia subpanel	cell growth	–	10 µM, 48 h, one-dose	–	mean growth percent	-80.8%
Cc1cc(Cl)cc(-c2ccnc3cc(CN4C(=O)C5C(C4=O)C5(C)C)sc23)c1C[C@@H]1CNCCO1 (stereo partly drawn)	CHP-212 parental	PI flow cytometry	–	0.3 µM, 24 h	–	G2/M phase cells	14.3%
CCC(=CCc1c(O)cc2c(c1O)C(=O)CC(c1cc(OC)ccc1O)O2)CC (stereo not drawn)	HeLa	cell growth or viability, MTT	–	6.25 µM, 48 h	–	inhibition	10.4%
N#C[C@@H]1CCCN1C(=O)CNC(=O)c1ccnc2ccc(OCCCN3CCN(C(=O)CCc4ccc5c(c4)CN4CCN6CC(=O)[O][68Ga-]([O]C(=O)C4)([O]5)[O]c4ccc(CCC(=O)N5CCN(CCCOc7ccc8nccc(C(=O)NCC(=O)N9CCC[C@H]9C#N)c8c7)CC5)cc4C6)CC3)cc12	HT1080 cells expressing human FAP	–	–	30 min, 37 °C	–	internalized fraction	79.4 ± 2%
O=S(=O)(N[C@H]1CCO[C@@H](C2c3ccccc3CCc3ccccc32)C1)c1ccc(OC(F)(F)F)cc1	D425	immunoblot, refers to: CCR2	–	concentration not given	–	protein level	decreased
COc1ccc(CNC[C@@](O)(COCc2ccc(F)cc2)[C@@H]2CC[C@@H](C)C[C@H]2OCc2ccc(F)cc2)cc1	A2780	cell growth or viability, MTT	–	30 µM, 72 h	–	inhibition	95.8%
CC(=O)N[C@@H](CC(=O)O)C(=O)N[C@@H](Cc1ccc2ccccc2c1)C(=O)N[C@@H](C)C(=O)N[C@@H](CC(=O)O)C(=O)COC(=O)c1c(C)cccc1C	THP-1 cells, LPS-primed	pyroptosis, LDH release	–	25 µM, LPS 1 µg/mL, 4 h, added: nigericin 5 µM, 2 h	–	cell lysis	94%
C=CC(=O)N1[C@H](c2ccc3c(c2)OCO3)c2[nH]c3ccccc3c2C[C@@H]1C(=O)N1CCN(C)CC1	human cyclin E1 N112C-3xFLAG:CDK2	co-IP with TMT proteomics, refers to: KPNA2	–	concentration not given, P52292	reference: wild type DMSO	relative co-enrichment	114%
CCCCCCc1cccc([C@H](O)C[C@H](CO)NC(=O)CCCCCOc2ccc3ccccc3c2)c1	HeLa	CERT activity, HPLC-MS/MS lipidomics, refers to: hexosylceramide 24:1	–	1 µM, 24 h, not cell-number normalised	–	hexosylceramide level	16600 pmol/sample and 8790 pmol/sample and 15300 pmol/sample
COC1CN([C@H]2CC[C@H]([C@@]3(C)Oc4c(Cl)cc(C(=O)NCc5c(SC)cc(C)[nH]c5=O)c(C)c4O3)CC2)C1	–	RNA-seq, refers to: NLRX1 mouse homolog	mouse, HT-1376 xenograft, whole blood	dose not given	reference: vehicle	log2 fold change	0.0975
CNS(=O)(=O)Nc1nccc(Cc2c(C)c3ccc(Oc4ncccc4F)cc3oc2=O)c1F	OVCAR-8	cell viability	–	7 days	–	IC50	0.101 µM
O=C(N/N=C/c1ccc(C[n+]2ccccc2)cc1)c1cncc(C(=O)N/N=C/c2ccc(C[n+]3ccccc3)cc2)n1	22CTA telomeric G4-DNA antiparallel	FRET melting	–	1 µM, K10 buffer, DNA 0.2 µM, added: ds26 10 µM	–	ΔTm	11.8 ± 0.6 °C
Cc1ccc(-n2cc(CSc3nc4ccccc4n3Cc3cn(-c4ccc(C)cc4)nn3)nn2)cc1	Caco-2	MTT	–	500 ppm	–	cytotoxicity	90.3%
CN1CCCNC(=O)c2cccc(c2)C(=O)NCCCN(C)CCCNc2cccc3c2C(=O)c2cccc(c2C3=O)NCCC1	SAS	RNA-Seq, refers to: MESD mRNA	–	1 µM, 6 h	reference: untreated cells	log2 fold change	-0.474
CCC(=CCc1c(O)cc2c(c1O)C(=O)CC(c1cccc(OC)c1O)O2)CC (stereo not drawn)	HeLa	cell growth or viability, MTT	–	100 µM, 48 h	–	inhibition	100%
CCN(CC)CC(=O)Nc1cccc(-n2cc(-c3ccc4ccc(-c5cn(-c6cccc(NC(=O)CN(CC)CC)c6)nn5)cc4c3)nn2)c1	RCC4	PCR array, refers to: TGFA	–	5 x IC50, 4 h, normoxia	reference: untreated	fold regulation	-1.21 fold
COC1CCN(C(=O)/C=C/c2nn(Cc3cccc(C(F)(F)F)c3)c3nc(N4CCOCC4)ncc23)CC1	FLO-1	cell growth or viability, resazurin	–	5 days	–	EC50	> 30 µM
Nc1ncc(-c2cc(-c3cnn(CC(F)(F)F)c3)ncc2F)nc1C(=O)NC1CNCC(F)C1 (stereo not drawn)	PDGFRB	KINOMEscan	–	1 µM	reference: DMSO control	remaining binding	100%
Cc1nn(-c2cccc(N)c2)c(=O)c2cnc(Nc3ccc(N4CCNCC4)cc3)nc12	Activin receptor type-1B (ACVR1B, Homo sapiens, UniProt P36896)	enzyme activity, inhibitor	–	–	–	IC50	> 10 µM
CC1CN(C(=O)c2cn(C34CCCC(C)(CCC5C3CC5(C)C)C4)nn2)CCN1 (stereo not drawn)	HT-29	cell growth or viability, CCK-8	–	50 µM	–	inhibition	78.3%
C=CC(=O)Nc1cccc(Cn2ncc3cnc(Nc4cnn(CCOC)c4)nc32)c1	DCAMKL1 human	binding, KINOMEscan	–	100 nM	lower = stronger binding	percent of control	99%

For quick reference, copied from above:
SMILES	target or system	test	system	conditions	how to read	quantity	result
CCCCCCc1cccc([C@H](O)C[C@H](CO)NC(=O)CCCCCOc2ccc3ccccc3c2)c1	HeLa	CERT activity, HPLC-MS/MS lipidomics, refers to: hexosylceramide 24:1	–	1 µM, 24 h, not cell-number normalised	–	hexosylceramide level	16600 pmol/sample and 8790 pmol/sample and 15300 pmol/sample
COC1CN([C@H]2CC[C@H]([C@@]3(C)Oc4c(Cl)cc(C(=O)NCc5c(SC)cc(C)[nH]c5=O)c(C)c4O3)CC2)C1	–	RNA-seq, refers to: NLRX1 mouse homolog	mouse, HT-1376 xenograft, whole blood	dose not given	reference: vehicle	log2 fold change	0.0975
